Measurements from different studies.
A part holds a random share of what one study measured. Numbers after ± are the reported error.

Sample 1
Organism: SARS-CoV-2 Wuhan spike VSV pseudovirus
Observed: pseudovirus entry
Concentration: concentration not given
The inhibition of `CN(CC(=O)Nc1nc2ccc(Cl)cc2s1)S(=O)(=O)c1c[nH]c(C(=O)N2CCCCC2)c1` is reported as 40%.
With `CN(CC(=O)N1CCN2C(=O)CN(C)C(=O)C2C1)Cc1ccc(F)cc1` (stereo not drawn) the inhibition was 36%.
`O=C1CN(C(=O)COc2ccc(C3SCCCS3)cc2)CCN1` has an inhibition of 40%.
The inhibition of `Cc1c[nH]c(-c2c(-c3ccccc3)ncn2Cc2ccccc2CN(C)C)n1` is reported as 42%.
For `CCOC(=O)c1oc2ccc(S(=O)(=O)N(C)CCc3c(C)nn(CC)c3C)cc2c1C`, the inhibition was 41%.
`Cc1ccc(CCNc2ncnc3scc(-c4ccc(F)cc4)c23)cc1` gave an inhibition of 42%.
`Cc1ccc(-n2nnc(C(=O)N3CCN(Cc4ccccc4)CC3)c2-c2cccnc2)cc1` gave an inhibition of 38%.
The inhibition of `N#CC(C#N)=C/C=C(\Sc1nnnn1-c1ccccc1)c1ccccc1` is reported as 42%.
With `c1ccc(-c2cc(CN3CCN(c4ncnc5ccccc45)CC3)on2)cc1` the inhibition was 40%.

Other studies, line by line
rep nsp14: Replicase polyprotein 1ab, nsp14 (rep, Severe acute respiratory syndrome coronavirus 2, UniProt P0DTD1)
rep nsp12 RdRp: Replicase polyprotein 1ab, nsp12 RdRp (rep, Severe acute respiratory syndrome coronavirus 2, UniProt P0DTD1)
rep papain-like protease: Replicase polyprotein 1ab, papain-like protease (rep, Severe acute respiratory syndrome coronavirus 2, UniProt P0DTD1)
For `O=C(NC1CCN(c2ncnc3[nH]cnc23)CC1)c1cccc(S(=O)(=O)N2CCCC2)c1`, the inhibition was 13.2% (rep nsp14; NSP14 enzyme activity, inhibitor; 0.01221 µM).
For `CC1(C)CCC(CN2CCN(c3ccc(C(=O)NS(=O)(=O)c4ccc(NCC5CCOCC5)c([N+](=O)[O-])c4)c(Oc4cnc5[nH]ccc5c4)c3)CC2)=C(c2ccc(Cl)cc2)C1`, the BLI response was -0.01 nm (rep nsp12 RdRp; binding, biolayer interferometry; concentration not given).
With `O=C(NC1CCN(c2ncnc3[nH]cnc23)CC1)c1cccc(NS(=O)(=O)c2cccs2)c1` the inhibition was 28% (rep nsp14; enzyme activity; SARS-CoV-2; concentration not given).
The activity of `CC(C)C[C@H](NC(=O)[C@@H](NC(=O)c1cccc(-c2ccccc2)n1)[C@@H](C)O)B(O)O` is reported as 20.8% (rep papain-like protease; concentration not given, C111S mutant; baseline: positive control).
`N#C[C@@]1(n2ccc(N)nc2=O)O[C@H](CO)[C@@H](O)[C@H]1O` has an EC50 of 0.6 ± 0.01 µM (SARS-CoV-2; viral replication; Vero, Alpha).
With `Nc1ccc(/C=C/C(=O)NCc2cc3cc(-c4ccc(C(=O)N5CCC(F)(F)CC5)cc4)cc(-c4ccc(F)cc4)c3o2)cn1` the BLI response was -0.02 nm (rep nsp12 RdRp; binding, biolayer interferometry; concentration not given).
`CCC(CC)[C@H](NC(C)=O)[C@@H]1[C@H](O)[C@@H](C(=O)O)C[C@H]1N=C(N)N` has an IC50 of 0.0167 ± 0.0038 µM (neuraminidase (Influenza B virus, UniProt C0LT34, N294S)).
The EC50 of `CCC(CC)COC(=O)[C@H](C)N[P@](=O)(OC[C@H]1O[C@@](C#N)(c2ccc3c(N)ncnn23)[C@H](O)[C@@H]1O)Oc1ccccc1` is reported as 0.1 ± 0.05 µM (SARS-CoV-2 Omicron; viral replication; Calu-3).
For `O=c1oc(Cl)c(Cl)c2ccccc12`, the activity was 21.1% (rep papain-like protease; concentration not given, C111S mutant; baseline: positive control).

Some of these lines once more (sample 1):
`O=C1CN(C(=O)COc2ccc(C3SCCCS3)cc2)CCN1` has an inhibition of 40%.
The inhibition of `Cc1c[nH]c(-c2c(-c3ccccc3)ncn2Cc2ccccc2CN(C)C)n1` is reported as 42%.
